Experimental data gathered from unrelated publications.
Protocols differ between the studies behind these lines. “And” joins repeats or separate records; there may be more than shown.
Cell line: HL-60(TB)

Compound | assay | setting | endpoint | value
Cn1cncc1C1=CN(c2ncnc3[nH]cnc23)CCS1 | – | – | GI50 | 21.9 µM
COc1c(CCCO)cc2c(c1OC)OCO2 | NCI60 SRB | concentration not given | growth percent | 97.4%
Cc1cc(-c2ccccc2)n(-c2nc(-c3ccc(Cl)cc3)c3c(NC(=O)c4ccccc4)nnc-3[nH]2)n1 | – | 10 µM | growth percent | 112%
O=c1ccn(Cc2cn(-c3c4ccccc4nc4ccccc34)nn2)c(=O)[nH]1 | NCI60 single dose | 10 µM | growth | 75.7%
CCCN1CCN(c2ccc3[nH]c(-c4ccc5[nH]c(-c6cc(OC)c(OC)c(OC)c6)nc5c4)nc3c2)CC1 | cell growth | 10 µM, 48 h | growth percent | 97.4%
NNc1nc(-c2ccc(Cl)cc2)c2c(NC(=O)c3ccccc3)nnc-2[nH]1 | – | 10 µM | growth percent | 92.5%
CN1CCN(C2(CNC3CCN(c4cccc(-c5cc6cc(F)ccc6[nH]5)c4)CC3)CCC2)CC1 | – | – | GI50 | 1.97 µM
COc1cc(COC(=O)CCCCC[P+](c2ccccc2)(c2ccccc2)c2ccccc2)c(OC)c2c1OCO2.[Br-] | NCI60 SRB | concentration not given | growth percent | -9.81%
CCCCN1CCN(c2ccc3[nH]c(-c4ccc5[nH]c(-c6ccc(OCC)c(OCC)c6)nc5c4)nc3c2)CC1 | cell growth | 10 µM, 48 h | growth percent | 3.99%
Cc1cc(=O)[nH]n1-c1nc(-c2ccc(Cl)cc2)c2c(NC(=O)c3ccccc3)nnc-2[nH]1 | – | 10 µM | growth percent | 102%
Cc1cc(=O)[nH]c(=O)n1Cc1cn(-c2c3ccccc3nc3ccccc23)nn1 | NCI60 single dose | 10 µM | growth | 16.3%
C#C[C@@]1(O)[C@@H](CO)O[C@@H](n2cc(I)c3c(N)ncnc32)[C@@H]1O | cell growth | – | TGI | 0.2 µM and 0.343 µM
CCN(CC)c1ccc(C=NNC(=O)CSc2nc3ccccc3c(=O)n2Cc2ccc(S(N)(=O)=O)cc2)c(O)c1 | cell growth | – | TGI | 5.38 µM
CCCN1CCN(c2ccc3nc(-c4ccc5nc(-c6cc(OC)ccc6OC)[nH]c5c4)[nH]c3c2)CC1 | cell growth | 10 µM, 48 h | growth percent | 106%
COc1c(CCC[P+](c2ccccc2)(c2ccccc2)c2ccccc2)cc2c(c1OC)OCO2.[I-] | SRB | – | Log10GI50 | -6.47 log M
CC(C)N1CCC(NC2CCN(c3cccc(-c4cc5cc(F)ccc5[nH]4)c3)CC2)CC1 | – | – | CC50 | 7.86 µM
CCCN1CCN(c2ccc3[nH]c(-c4ccc5[nH]c(-c6ccc(C(F)(F)F)cc6)nc5c4)nc3c2)CC1 | cell growth | 10 µM, 48 h | growth percent | -40.7%
Cc1n[nH]c2nc(-c3ccc(Cl)cc3)c3c(NC(=O)c4ccccc4)nnc-3n12 | – | 10 µM | growth percent | 102%
CCCCN1CCN(c2ccc3nc(-c4ccc5nc(-c6cc(OC)ccc6OC)[nH]c5c4)[nH]c3c2)CC1 | cell growth | 10 µM, 48 h | growth percent | 115%
COc1cc(CCC[P+](c2ccccc2)(c2ccccc2)c2ccccc2)c(OC)c2c1OCO2.[I-] | SRB | – | Log10TGI | -5.63 log M
CCOc1ccc(-c2nc3cc(-c4nc5cc(N6CCN(C)CC6)ccc5[nH]4)ccc3[nH]2)cc1OCC | cell growth | 10 µM, 48 h | growth percent | 24.8%
O=C(Nc1nnc2[nH]c(=S)[nH]c(-c3ccc(Cl)cc3)c1-2)c1ccccc1 | – | 10 µM | growth percent | 96.1%
C#C[C@@]1(O)[C@@H](CO)O[C@@H](n2ccc3c(N)ncnc32)[C@@H]1O | cell growth | – | TGI | 5.49 µM
O=c1ccn(Cc2cn(-c3cc4ccccc4oc3=O)nn2)c(=O)[nH]1 | NCI60 single dose | 10 µM | growth | 104%
O=C(Nc1nnc2n3c(Cc4ccccc4)n[nH]c3nc(-c3ccc(Cl)cc3)c1-2)c1ccccc1 | – | 10 µM | growth percent | 98%
